Published values gathered from unrelated publications.
Each line is one published result; not all experiments were run side by side. Numbers after ± are the reported error.
Method: steady-state kinetics
B1: AK1 (Homo sapiens, UniProt P00568); chain MEEKLKKTKIIFVVGGPGSGKGTQCEKIVQKYGYTHLSTGDLLRSEVSSGSARGKKLSEIMEKGQLVPLETVLDMLRDAMVAKVNTSKGFLIDGYPREVQQGEEFERRIGQPTLLLYVDAGPETMTQRLLKRGETSGRVDDNEETIKKRLETYYKATEPVIAFYEKRGIVRKVNAEGSVDSVFSQVCTHLDALK
B2: curN (Lyngbya majuscula, UniProt Q6DND9); chain AGVPVAGRAQSQPPLQLPISSEFPFAKRTVEVEGATIAYVDEGSGQPVLFLHGNPTSSYLWRNIIPYVVAAGYRAVAPDLIGMGDSAKPDIEYRLQDHVAYMDGFIDALGLDDMVLVIHDWGSVIGMRHARLNPDRVAAVAFMEALVPPALPMPSYEAMGPQLGPLFRDLRTADVGEKMVLDGNFFVETILPEMGVVRSLSEAEMAAYRAPFPTRQSRLPTLQWPREVPIGGEPAFAEAEVLKNGEWLMASPIPKLLFHAEPGALAPKPVVDYLSENVPNLEVRFVGAGTHFLQEDHPHLIGQGIADWLRRNKPHAS
B3: genB3 (Micromonospora echinospora, UniProt Q2MG50); chain MDSANLTNRGLVERARRVTAAENYDIGTRFSAMIQSGEGAWLTDVEGNRYVDLTASSGTIILGHRNQAVTEAITRQIRDFGTAFASTLSVPRVELAERLCERYECAEKVVFHKTGSEGTAMAARLARAATGRELILSCGYHGWHEWQLAGETFGYQQTTGVVGFGYNEKALAKMLEAFGNEVAGVLISPELLYFDVEFYQRMYALCARYDVPFMMDEVYTGFRAGPKGVHGLGVPADVVVVSKGLANGHSLAAVMGRRDIIDAYDVSGIQGTYTREVPPMAAAMAVLDVLDTPGVYEHAEAMGRRLADGMREILTGEGIPNWVGGPALMFDTVLPNDDLGWEIYKTAHDFGVYFEDSGTQLVTTAFDEAAVDHALTAFRKATRQVIADRPDIAPTSGGELTEERKLDFAEEAFGGLLRDDERTNALIDETIEKVVNRDRSIKPVLIPAQN
B4: enzyme (Streptomyces filamentosus, UniProt A0ABY4UVI6); chain MEHRIDADLLIPGAGEPTVNGSVVHADGRIRFAGPTAELPREHRALEPTRVATLLPGLWDCHVHFAGIRGRVSTEELMLTPETLAVVRSVKDAETALRAGFTSVRDMGGHGCVLAEAVREGTFTGPNIYSANQVIGQTGGHSDAHRLPYRWVTDPCRSGGTLRIADGVDECVRAVRLQLRAGAELIKICTSGGVLSEVDNPVHQQYRSEELNAIVTEAARADRVVAAHCHGRAGILAAIDAGCHTVEHGTEIDERTADLMAERGMTLVPTRTIYEAFRQDVAALPPAWRDRFALMAERHLTAIGIAHRAGVTIALGTDLGTSDRGGPLSWGGHGSEFAHLVSAGLSPLEAIKAATAHGPGTLGPRAPRSGRLEAGYDADLLAVDGNPLADITVLADPDRITRVWKSGEPVPSG
B5: PPIP5K2 (Homo sapiens, UniProt O43314); chain MSEAPRFFVGPEDTEINPGNYRHFFHHADEDDEEEDDSPPERQIVVGICSMAKKSKSKPMKEILERISLFKYITVVVFEEEVILNEPVENWPLCDCLISFHSKGFPLDKAVAYAKLRNPFVINDLNMQYLIQDRREVYSILQAEGILLPRYAILNRDPNNPKECNLIEGEDHVEVNGEVFQKPFVEKPVSAEDHNVYIYYPTSAGGGSQRLFRKIGSRSSVYSPESNVRKTGSYIYEEFMPTDGTDVKVYTVGPDYAHAEARKSPALDGKVERDSEGKEVRYPVILNAREKLIAWKVCLAFKQTVCGFDLLRANGQSYVCDVNGFSFVKNSMKYYDDCAKILGNIVMRELAPQFHIPWSIPLEAED
B6: enzyme (Streptomyces venezuelae, UniProt Q9ZGI2); chain SGADTGAGAGMFRALFRQAVEDDRYGEFLDVLAEASAFRPQFASPEACSERLDPVLLAGGPTDRAEGRAVLVGCTGTAANGGPHEFLRLSTSFQEERDFLAVPLPGYGTGTGTGTALLPADLDTALDAQARAILRAAGDAPVVLLGHSGGALLAHELAFRLERAHGAPPAGIVLVDPYPPGHQEPIEVWSRQLGEGLFAGELEPMSDARLLAMGRYARFLAGPRPGRSSAPVLLVRASEPLGDWQEERGDWRAHWDLPHTVADVPGDHFTMMRDHAPAVAEAVLSWLDAIEGIEGAGK
B7: protein (Thermotoga neapolitana, UniProt B9K712); chain MKMLYDLAKKRKTVRRFKKEKPPLEDLIYSLKVANEAPSGMNAQPWRFLIVEDEKLKGQIRRVCERSEKTFYENVRGRLKEWLDEKRFTWRKPFLKEAPYLLLVFSEKSAPYSRESVWLAVGYLLLALEEKGLGSVPYTPPDFREVEKLVNTPSELRLEVILPVGYPDDPKPKYPRNEVIVRYNTF
B8: CMPK1 (Homo sapiens, UniProt P30085); chain MKPLVVFVLGGPGAGKGTQCARIVEKYGYTHLSAGELLRDERKNPDSQYGELIEKYIKEGKIVPVEITISLLKREMDQTMAANAQKNKFLIDGFPRNQDNLQGWNKTMDGKADVSFVLFFDCNNEICIERCLERGKSSGRSDDNRESLEKRIQTYLQSTKPIIDLYEEMGKVKKIDASKSVDEVFDEVVQIFDKEG
B9: genB3 A452T/L401C/Q310N (Micromonospora echinospora, UniProt Q2MG50); chain MDSANLTNRGLVERARRVTAAENYDIGTRFSAMIQSGEGAWLTDVEGNRYVDLTASSGTIILGHRNQAVTEAITRQIRDFGTAFASTLSVPRVELAERLCERYECAEKVVFHKTGSEGTAMAARLARAATGRELILSCGYHGWHEWQLAGETFGYQQTTGVVGFGYNEKALAKMLEAFGNEVAGVLISPELLYFDVEFYQRMYALCARYDVPFMMDEVYTGFRAGPKGVHGLGVPADVVVVSKGLANGHSLAAVMGRRDIIDAYDVSGINGTYTREVPPMAAAMAVLDVLDTPGVYEHAEAMGRRLADGMREILTGEGIPNWVGGPALMFDTVLPNDDLGWEIYKTAHDFGVYFEDSGTQCVTTAFDEAAVDHALTAFRKATRQVIADRPDIAPTSGGELTEERKLDFAEETFGGLLRDDERTNALIDETIEKVVNRDRSIKPVLIPAQN
B10: DTYMK (Homo sapiens, UniProt P23919); chain MAARRGALIVLEGVDRAGKSTQSRKLVEALCAAGHRAELLRFPERSTEIGKLLSSYLQKKSDVEDHSVHLLFSANRWEQVPLIKEKLSQGVTLVVDRYAFSGVAFTGAKENFSLDWCKQPDVGLPKPDLVLFLQLQLADAAKRGAFGHERYENGAFQERALRCFHQLMKDTTLNWKMVDASKSIEAVHEDIRVLSEDAIRTATEKPLGELWK
B11: enzyme (Streptomyces platensis, UniProt A0A0A0V031); chain MQHTTIGDVLREHRRSHPGRTALVDGPVRLTWPELDDRVNRLAGSLAASGIGRGDRIMWLGQNSFRVYELIAAAGKLGAMVCVGYWRWAPPEMEFALRDFDPHLVVWQHQEIHETVARTREALGSDDTARWLRHDSAPQDPDGYEAFLAAGGLADPDLDIDPDSPVLVLYTAAMSGRQCGSLLSHTNLIAMATAAAWLGDIDHTTAFLNSGPMFHIGNHQFWGMPTLLMAGKNVIVRRVVAEEVRDLLVAEECTHAFLMPPTVAEIVRLNRDTGHDLSRLRATVAPHLWEGMATTDTSRFTRSGAAAGRGYGQTELSGFAVTAAYGGPAAGNAGRPGPGLTVRVLDTAGRECAVGEAGEICARGTVVHRGYWNRDEVNAHRFRSGWWHTTDLGRREPDGSLTFLGTTTRMLKSAAENIFPAEVENCIEQHPAVREAAVIGVPNTRWAQDVKAVVVLEPDAGVSEQEIIDHCRPRIASYKKPKSVAFAAALPRTVSGARDYDALDKEYGGGGYPGAATLGPGR

For `B1 (AK1)`, the kcat/Km was 10000 M⁻¹ s⁻¹ (Nc1ccn(C2OC(COP(=O)(O)O)C(O)C2O)c(=O)n1).
`B2 (curN)` gave a kcat/Km of 1.26e+07 M⁻¹ s⁻¹ (CC1=[N+]2C(=C(CCl)c3ccc(C)n3[B-]2(F)F)C=C1; pH 8, 30 °C).
`B3 (genB3)` gave a kcat/Km of 59.3 M⁻¹ s⁻¹ (CN[C@@H]1[C@@H](O)[C@@H](O[C@@H]2[C@@H](O)[C@H](O[C@H]3O[C@H](CN)[C@@H](O)[C@H](OP(=O)(O)O)[C@H]3N)[C@@H](N)C[C@H]2N)OC[C@]1(C)O; 30 °C).
With `B4 (enzyme)` the kcat/Km was 88.5 M⁻¹ s⁻¹ (CC(C)C[C@H](NC(=O)c1cc(O)cc(-c2ccccn2)n1)C(=O)O; pH 8, 30 °C).
For `B5 (PPIP5K2)`, the kcat/Km was 2.2e+06 M⁻¹ s⁻¹ (O=P(O)(O)O[C@H]1[C@@H](OP(=O)(O)O)[C@H](OP(=O)(O)O)[C@@H](OP(=O)(O)OP(=O)(O)O)[C@H](OP(=O)(O)O)[C@H]1OP(=O)(O)O).
With `B6 (enzyme)` the kcat/Km was 43.3 ± 0.833 M⁻¹ s⁻¹ (CC[C@@H](O)[C@H](C)/C=C/C(=O)[C@H](C)C[C@H](C)[C@H](OC)[C@@H](C)C(=O)SCCNC(C)=O).
The kcat/Km of `B7 (protein)` is reported as 120000 ± 40000 M⁻¹ s⁻¹ (N[C@@H](Cc1ccc(O)c(I)c1)C(=O)O; pH 7.4, 25 °C).
`B8 (CMPK1)` has a kcat/Km of 6.5e+06 M⁻¹ s⁻¹ (Nc1ccn(C2OC(COP(=O)(O)O)C(O)C2O)c(=O)n1; 37 °C, added: ATP 1 mM).
`B9 (genB3 A452T/L401C/Q310N)` gave a kcat/Km of 45.5 M⁻¹ s⁻¹ (CN[C@@H]1[C@@H](O)[C@@H](O[C@@H]2[C@@H](O)[C@H](O[C@H]3O[C@H](CN)[C@@H](O)[C@H](OP(=O)(O)O)[C@H]3N)[C@@H](N)C[C@H]2N)OC[C@]1(C)O; 30 °C).
With `B10 (DTYMK)` the kcat/Km was 900 M⁻¹ s⁻¹ (Cc1cn([C@@H]2C[C@@H](O)[C@H](COP(=O)(O)O)O2)c(=O)[nH]c1=O; added: ATP 2 mM, Mg2+ 2 mM).
The kcat/Km of `B11 (enzyme)` is reported as 1.5e+07 M⁻¹ s⁻¹ (C[C@@]12CCC[C@@](C)(C(=O)OP(=O)(O)OC[C@H]3O[C@@H](n4cnc5c(N)ncnc54)[C@H](O)[C@@H]3O)[C@H]1C[C@@H](O)[C@]13C[C@H]4C[C@H](O[C@@]4(C)C1)[C@@H]23; pH 7.8, 25 °C).

Repeated from above:
With `B10 (DTYMK)` the kcat/Km was 900 M⁻¹ s⁻¹ (Cc1cn([C@@H]2C[C@@H](O)[C@H](COP(=O)(O)O)O2)c(=O)[nH]c1=O; added: ATP 2 mM, Mg2+ 2 mM).
With `B6 (enzyme)` the kcat/Km was 43.3 ± 0.833 M⁻¹ s⁻¹ (CC[C@@H](O)[C@H](C)/C=C/C(=O)[C@H](C)C[C@H](C)[C@H](OC)[C@@H](C)C(=O)SCCNC(C)=O).
